Assay results pooled from the literature.
Each numbered part is a random draw from the data of one study; scales do not carry over between parts.

Block 1
Target: RNA binding protein fox-1 homolog 2, RRM domain, GST-SBP tag (RBFOX2, Homo sapiens, UniProt O43251-10, residues 100-194)
Technique: RNA Bind-n-Seq
Form: RNA
Medium: in vitro
Tested at: 365 nM
Notes: natural RNA segment, single round, ends assumed
Reference: no-protein control
Reading: higher = stronger binding
All sequences stand within: GGGAGUUCUACAGUCCGACGAUC … UGGAAUUCUCGGGUGCCAA
Construct (chain): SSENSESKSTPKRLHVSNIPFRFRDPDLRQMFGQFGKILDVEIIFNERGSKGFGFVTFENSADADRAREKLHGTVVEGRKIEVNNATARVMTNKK
For `UGUCUCUUCACUAAGAGUAAACUGGGAAAUUGUAGGCCAAAGUCCAGUUGAACUUUCUAAGUCUGUGAUCCCCGUGCUGACUGUGGAAGUGUAUUUAUACCAAGAUGGAG`, “RBNS enrichment (R)” read 0.33.
Under “RBNS enrichment (R)”, `GGCCAAGCUGGUCACAAGUGGUCACUUACUCUUGCCAUUCUUCAUGAACCAAACCAACUGUGUGACUGUCUGAUGUGCCACCUCACUCAGAGGGAAGCUCUAACAUUGCC` is recorded as 0.243.
`UUGACAUAUACCCUGGUGACUAUAACCAGUGAACUGUUCAGAGUCAGUCUUUUCGGCAAGAACUUCAGAGAACUGUGACACUGGUUAUGAUGUGAUUUUGGGGGGUUUCA`: “RBNS enrichment (R)” 0.642.
`UUGGGAGAAAUGAUACACUUGGUCUCAUUAUGUGAAGCGGGGUGGGGAUAACGAGACAGGGAAAUGGCCGCCAUGGUGGCCUGCUCCCUGCCAACACUAAUGUUCCCCAC` — result for “RBNS enrichment (R)”: 0.314.
`GGAAAUAUAAUGGCCUAAUUGUUUUCAAAAUGUAAGUUCCUGUGAAGAAUUUUGUUUAUAUUGGGUUGGGGACCUAUAGGUUUAAAAUAGAAUGUCAGUCAGCUGACUUA`: “RBNS enrichment (R)” 0.908.
Under “RBNS enrichment (R)”, `AUGAGAAAACAUCAAAACUGCUGUAGUUUUCCAUUUCUACUGUAUUUCAGUUGCAACCUAUUUUUAAUAAACUUUGUAUGUAUUUAAGUGUAUUUGCUAUUGUUUUGAAA` is recorded as 2.6.
For `AACUGCCCAGGUGGAACAGCACGUAACCUAGUGAGUGACUGUACUCCUUUCUAGGAAUGCUGAUUCAGAGUGCACCUCUUUGACUAGGUCCCAGGAUCCCCUUGUCCCUG`, “RBNS enrichment (R)” read 1.36.
Under “RBNS enrichment (R)”, `AAUGUGAAUAGCAAAUUCUGGUAUAUCGUGACUAACGCUUAAGAAUGCCUGUCUUUGAGAGGAAGGUGUUAUAAUAUUAAUGAACAGUGCCAAAUACACUGUGCAUAUCU` is recorded as 0.41.

Block 2
Target: Histone acetyltransferase KAT6A, winged helix 1, GST fusion (KAT6A, Homo sapiens, UniProt Q92794, residues 1-85)
Technique: protein binding microarray
Form: double-stranded DNA, one strand shown
Medium: in vitro
Tested at: not given
Notes: 8-mer, flanks averaged, mean of 2 arrays, mostly near background
Reference: not given
Reading: higher = stronger binding
Target sequence (chain): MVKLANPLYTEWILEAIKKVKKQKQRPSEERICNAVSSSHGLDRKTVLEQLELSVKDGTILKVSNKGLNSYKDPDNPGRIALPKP
`CAGGGCTA` gave an E-score of -0.0928.
For `GGTATACA`, the E-score was 0.0596.
`CCGGTTCA` has an E-score of 0.116.
For `ACTGGTGG`, the E-score was -0.247.
`GCCAAATA` gave an E-score of -0.115.
For `AAGTCTGA`, the E-score was -0.329.
With `CCGTTAAG` the E-score was 0.132.
The E-score of `CCTGCCAA` is reported as -0.182.
`ATGTGACC` has an E-score of 0.0228.
`CAGTCTGC` has an E-score of -0.104.
With `ACAGGCGT` the E-score was -0.0564.
For `CCCAAGGC`, the E-score was 0.0316.
For `AGTCGCTA`, the E-score was -0.0359.
With `AACGCATT` the E-score was 0.179.
For `ATGGAGTC`, the E-score was -0.142.
The E-score of `ATCTGCAA` is reported as -0.295.
With `AACCCGTG` the E-score was 0.274.

Block 3
Target: Interferon regulatory factor 7, full length, phosphomimetic (IRF7, Homo sapiens, UniProt Q92985, residues 1-503, S471D/S472D/S475D/S476D/S477D/S483D/S484D/S487D)
UniProt Q92985, sequence (whole entry, unmodified, looked up): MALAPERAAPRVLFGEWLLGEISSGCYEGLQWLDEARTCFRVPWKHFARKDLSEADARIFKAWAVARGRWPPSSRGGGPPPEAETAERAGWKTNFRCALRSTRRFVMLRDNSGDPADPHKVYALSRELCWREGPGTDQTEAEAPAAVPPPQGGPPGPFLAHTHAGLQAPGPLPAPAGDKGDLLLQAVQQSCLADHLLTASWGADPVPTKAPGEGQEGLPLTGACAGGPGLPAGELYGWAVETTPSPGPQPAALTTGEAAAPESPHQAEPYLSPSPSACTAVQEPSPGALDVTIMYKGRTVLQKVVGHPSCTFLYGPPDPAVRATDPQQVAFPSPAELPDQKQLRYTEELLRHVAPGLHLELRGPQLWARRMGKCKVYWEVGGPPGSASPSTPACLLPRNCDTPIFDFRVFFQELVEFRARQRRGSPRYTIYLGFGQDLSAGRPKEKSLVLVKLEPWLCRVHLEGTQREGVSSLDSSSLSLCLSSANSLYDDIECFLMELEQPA
Technique: protein-binding microarray
Form: double-stranded DNA, one strand shown
Medium: in vitro
Tested at: 2200 nM top
Notes: 60-bp whole probe
Added: salmon DNA 0.4 mg/ml
Reference: random background probes
Reading: higher = stronger binding
All sequences stand within: GCCTAGCAC … GTCTTGATTCGCTTGACGCTGCTG
`TTAGAACTGCGGACTGGATTAGTGCTA`: “fitted relative affinity” -0.71 z-score.
`TTAGGACTGGGGATCGGTTAGTGCTAG` — result for “fitted relative affinity”: -0.473 z-score.
`TGGTCTCTAGTTAGAGAACTGTGCTAG`: “fitted relative affinity” 0.15 z-score.
For `TTAGATTTCAGATTGGATTAGTGCTAG`, “fitted relative affinity” read 0.515 z-score.
`GCCGGTTTCCTTATCCTGACGTGCTAG`: “fitted relative affinity” 3.95 z-score.
For `TCACCAATGCTTCTGGTACTGTGCTAG`, “fitted relative affinity” read 0.766 z-score.
`GACGGTTCCCTATTCCTGACGTGCTAG`: “fitted relative affinity” 2.19 z-score.
For `GACGGTATCGGTCTTGGGACGTGCTAG`, “fitted relative affinity” read -0.0201 z-score.
For `GAGGGTTTCGACACTGGGGACGTGCTA`, “fitted relative affinity” read 0.962 z-score.
`TTAGATTTCAGATCCGATTAGTGCTAG` — result for “fitted relative affinity”: 0.665 z-score.
For `CCTGGTTTTACTTTCTATCTGTGCTAG`, “fitted relative affinity” read 5.23 z-score.
Under “fitted relative affinity”, `TTAGAACTGGACTATCGGTTAGTGCTA` is recorded as -0.163 z-score.
For `GACGCTCTCAGTTTCGAGACGTGCTAG`, “fitted relative affinity” read 3.64 z-score.
`TTAGGTATCGGACTGGGGTAGTGCTAG` — result for “fitted relative affinity”: -0.149 z-score.
For `GACGGACCGGACTATCGGGACGTGCTA`, “fitted relative affinity” read -1.21 z-score.
Under “fitted relative affinity”, `GGCTCCTCCCCGCTTCTGGAGTGCTAG` is recorded as -0.192 z-score.
Under “fitted relative affinity”, `GACGGTATCCTTCTCTTGACGTGCTAG` is recorded as 1.13 z-score.
For `TTAGGTCTCAGTCTCGGTTAGTGCTAG`, “fitted relative affinity” read 0.668 z-score.
`GACGGACTGCTTATCCTCACGTGCTAG`: “fitted relative affinity” 0.6 z-score.

Block 4
Target: Ras GTPase-activating protein-binding protein 1, full length (G3BP1, Homo sapiens, UniProt Q13283)
UniProt Q13283, sequence (whole entry, looked up): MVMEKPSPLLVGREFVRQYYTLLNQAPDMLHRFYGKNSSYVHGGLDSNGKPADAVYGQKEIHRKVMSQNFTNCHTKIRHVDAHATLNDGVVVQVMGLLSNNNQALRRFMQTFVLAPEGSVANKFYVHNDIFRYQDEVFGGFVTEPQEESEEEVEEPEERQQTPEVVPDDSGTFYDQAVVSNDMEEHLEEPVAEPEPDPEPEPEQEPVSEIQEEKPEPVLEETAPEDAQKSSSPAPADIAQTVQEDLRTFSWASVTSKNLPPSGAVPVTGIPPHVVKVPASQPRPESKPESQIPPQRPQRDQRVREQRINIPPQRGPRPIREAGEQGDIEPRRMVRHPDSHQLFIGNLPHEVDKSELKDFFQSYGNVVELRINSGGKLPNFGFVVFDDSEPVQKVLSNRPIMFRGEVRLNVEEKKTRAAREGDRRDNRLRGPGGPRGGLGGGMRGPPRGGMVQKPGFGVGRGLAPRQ
Technique: RNA Bind-n-Seq
Form: RNA
Medium: in vitro
Tested at: 200 nM
Notes: whole 134-nt RNA, ends assumed
Added: 150 mM LiCl
Reference: input library
Reading: higher = stronger binding
Library: 7-deaza-guanosine replaces G
All sequences stand within: GGGAGUUCUACAGUCCGACGAUC … UGGAAUUCUCGGGUGUCAAGG
`UAACUUUAGAGGAGGAUCUGAUGGAUAUGGCAGUGGCCGUGGAUUUGGGGAUGGCUAUAAUGGGUAUGGAGGAGGACCUGGAGGUGGCAA` has a log2 enrichment of -0.533.
With `UGUGUGUUAUAUAUUUAUUUUUAAUUGCAGAUGACAGGAUUGGACAUUGAGAAGGACCAGAUUAUUGAGAUGGCCUGUCUGAUAACUGAC` the log2 enrichment was -2.81.
For `UCAAGUCCUGUGCUACACAUCGUAUGUACCGAAUCGGGUUUGGGUUUGGUUUGGGAAAGUAUUAUGUUACGCCGUUCGGAUCUGCACUUC`, the log2 enrichment was -0.675.
`UGGGAGGUGGAUUUUGUUUAUUUUUUUAGCUCAUUUCCAGGUGUGGGAAUUUUUUUUUAAUAUGUGUCAUGAAUAAAGUUGUUUUUGAAA` gave a log2 enrichment of -0.658.
The log2 enrichment of `CUCAAGUCCUGUGCUACACAUCGUAUGUACCGAAUCGGGCCGGGGCCGGCCGGAAAGUAUUAUGUUACGCCGUUCGGAUCUGCACUUCCA` is reported as 0.497.
`CACAGACAACACGCACCCACACAGACACAGAGGGAAGGGGUUGGGAUGGGGACAGGGUGCACAGCAGGGCGUGGUAGGACCCCAGCCCCU` has a log2 enrichment of 0.336.
The log2 enrichment of `CACAGACAACACGCACCCACACGGACACAGAGGGAAGGGGUUGGGAUGGGGACAGGGUGCACAGCAGGGCGGGGUAGGACCCCAGCCCCU` is reported as 0.497.
`UCACUUUAGAGGAGGAUCUGAUGGAUAUGGCAGUGGACGUGGAUUUGGGGAUGGCUAUAAUGGGUAUGGAGGAGGACCUGGAGGUGGCAA` has a log2 enrichment of 0.0685.

A few entries again (block 2):
`CAGGGCTA` gave an E-score of -0.0928.
`ATGTGACC` has an E-score of 0.0228.
With `ACAGGCGT` the E-score was -0.0564.
For `GGTATACA`, the E-score was 0.0596.
For `CCCAAGGC`, the E-score was 0.0316.
For `AAGTCTGA`, the E-score was -0.329.
